Published values gathered from unrelated publications.
Each line is one published result; not all experiments were run side by side. ± marks the error that the study gave.

`CCCC[C@H]1C(=O)N(C)[C@@H](CCCC)C(=O)N[C@@H](CCCNC(=O)CN2CCN(CC(=O)O)CCN(CC(=O)O)CCN(CC(=O)O)CC2)C(=O)N[C@H](C(=O)NCC(N)=O)CSCC(=O)N[C@@H](Cc2ccc(O)cc2)C(=O)N(C)[C@@H](C)C(=O)N[C@@H](CC(N)=O)C(=O)N2CCC[C@H]2C(=O)N[C@@H](Cc2c[nH]cn2)C(=O)N[C@@H](CC(C)C)C(=O)N(C)CC(=O)N[C@@H](Cc2c[nH]c3ccccc23)C(=O)N[C@@H](CO)C(=O)N[C@@H](Cc2c[nH]c3ccccc23)C(=O)N1C` [gallium-68 labelled] gave a tissue uptake of 49.8 ± 14.9 %ID/g (NOD/SCID mice, CHO-hPD-L1 xenograft, kidney; 60 min, atezolizumab 10 mg/kg pretreatment).
With `CSCC[C@H](NC(=O)CNC(=O)[C@H](CCCCN)NC(=O)[C@H](CC(C)C)NC(=O)[C@@H]1CCCN1C(=O)[C@H](CO)NC(=O)[C@H](Cc1c[nH]cn1)NC(=O)[C@H](Cc1c[nH]c2ccccc12)NC(=O)[C@H](CCCNC(=N)N)NC(=O)[C@H](CC(C)C)NC(=O)[C@H](CCCNC(=N)N)NC(=O)[C@H](Cc1c[nH]c2ccccc12)NC(=O)[C@H](CS)NC(=O)CCCCCNC(=O)CN1CCN(CC(=O)O)CCN(CC(=O)O)CCN(CC(=O)O)CC1)C(=O)O` [copper-64 labelled] the tissue uptake was 1.69 ± 0.13 %ID/g (PET imaging; C57BL/6J mice bearing B16-F10 tumours, tumor; intravenous, 57.5 min).
`CC(C)C[C@@H](NC(=O)[C@@H](CCCNC(=N)N)NC(=O)[C@@H](Cc1c[nH]cn1)NC(=O)[C@@H](Cc1c[nH]c2ccccc12)NC(=O)[C@@H](Cc1c[nH]cn1)NC(=O)[C@@H](Cc1ccccc1)NC(=O)[C@H](NC(=O)[C@@H](Cc1ccc(O)cc1)NC(=O)CNC(=O)CNC(=O)CCOCCOCCOCCNC(=O)CN1CCN(CC(=O)O)CCN(CC(=O)O)CC1)[C@H](C)O)C(=O)N[C@H](CC(N)=O)C(=O)N1CCC[C@@H]1C(=O)O` [gallium-68 labelled] gave a tissue uptake of 2.5 ± 0.32 %ID/g (gamma counting; C57BL/6 mice, male, heart; intravenous, 1.85 MBq, 30 min).
The tissue uptake of `CC[C@H](C)[C@H](NC(=O)[C@H](CCCNC(=N)N)NC(=O)[C@H](CCCCN)NC(=O)[C@H](Cc1ccc(O)cc1)NC(=O)[C@H](CC(=O)O)NC(=O)[C@H](C)NC(=O)CNC(=O)CCOCCOCCOCCNC(=O)CN1CCN(CC(=O)O)CCN(CC(=O)O)CCN(CC(=O)O)CC1)C(=O)N[C@H](C(=O)N[C@@H](CC(C)C)C(=O)N[C@@H](CCCCN)C(=O)N[C@H](C(=O)N[C@@H](CC(N)=O)C(N)=O)C(C)C)[C@@H](C)O` [copper-64 labelled] is reported as 1.26 ± 0.592 %ID/g (ex vivo gamma counting; C57BL/6J male mice, B16-F10 tumour, stomach; intravenous, 1.85 MBq, 20 min).
With `CC[C@H](C)[C@H](NC(=O)[C@H](CCCCN)NC(=O)CNC(=O)[C@H](CC(C)C)NC(=O)[C@H](Cc1ccccc1)NC(=O)[C@H](CCCCN)NC(=O)[C@H](CO)NC(=O)[C@H](Cc1ccccc1)NC(=O)[C@H](Cc1c[nH]c2ccccc12)NC(=O)[C@H](CCC(N)=O)NC(=O)[C@@H](NC(=O)[C@H](Cc1ccccc1)NC(=O)CCCCCNC(=O)CN1CCN(CC(=O)O)CCN(CC(=O)O)CCN(CC(=O)O)CC1)C(C)C)C(=O)N[C@@H](CCC(=O)O)C(=O)N1CCC[C@H]1C(=O)N[C@@H](CC(=O)O)C(=O)N[C@H](C(=O)N[C@@H](CO)C(=O)N[C@@H](CCC(N)=O)C(=O)N[C@H](C(=O)N[C@@H](CCC(N)=O)C(=O)N[C@@H](CC(=O)O)C(=O)N1CCC[C@H]1C(=O)N[C@@H](CC(N)=O)C(=O)N[C@@H](CC(=O)O)C(=O)N[C@@H](CCC(N)=O)C(=O)N[C@@H](Cc1ccc(O)cc1)C(=O)N[C@@H](CCC(=O)O)C(=O)N1CCC[C@H]1C(=O)N[C@@H](Cc1ccccc1)C(=O)O)C(C)C)C(C)C` [copper-64 labelled] the tissue uptake was 3.96 ± 0.6 %ID/g (BALB/c mice, male, CT26 tumour-bearing, small intestine; 2 h, vehicle-treated).
With `C[C@H](O)[C@@H](NC(=O)[C@H]1CCCN1C(=O)[C@@H](CCCCN)NC(=O)[C@@H](CO)NC(=O)[C@@H](Cc1ccc(O)cc1)NC(=O)[C@@H](CC(N)=O)NC(=O)CCOCCOCCOCCNC(=O)CN1CCN(CC(=O)O)CCN(CC(=O)O)CCN(CC(=O)O)CC1)C(=O)N[C@H](CC(=O)O)C(=O)N[C@H](CCCNC(=N)N)C(=O)N[C@H](CCC(N)=O)C(=O)N[C@H](Cc1ccc(O)cc1)C(=O)N[C@H](Cc1c[nH]cn1)C(=O)N[C@H](Cc1ccccc1)C(N)=O` [copper-64 labelled] the tissue uptake was 0.05 ± 0.01 %ID/g (C57BL/6J mice, brain; intravenous, 1.85 MBq, 0.6667 h, radiolabelled).
For `CC[C@H](C)[C@H](NC(=O)[C@H](CCCNC(=N)N)NC(=O)[C@H](CCCCN)NC(=O)[C@H](Cc1ccc(O)cc1)NC(=O)[C@H](CC(=O)O)NC(=O)[C@H](C)NC(=O)CNC(=O)CCOCCOCCOCCNC(=O)CN1CCN(CC(=O)O)CCN(CC(=O)O)CCN(CC(=O)O)CC1)C(=O)N[C@H](C(=O)N[C@H](C(=O)N[C@@H](CCCCN)C(=O)N[C@H](C(=O)N[C@@H](CC(N)=O)C(N)=O)C(C)C)C(C)C)[C@@H](C)O` [copper-64 labelled], the tissue uptake was 1.15 ± 0.398 %ID/g (ex vivo gamma counting; C57BL/6J male mice, B16-F10 tumour, testis; intravenous, 1.85 MBq, 5 min).
For `CC[C@H](C)[C@H](NC(=O)[C@@H](Cc1c[nH]c2ccccc12)NC(=O)[C@@H]1CCCN1C(=O)[C@H](CCCCN)NC(=O)[C@H](CCCCN)NC(=O)CCNC(=O)CCNC(=O)CN1CCN(CC(=O)O)CCN(CC(=O)O)CCN(CC(=O)O)CC1)C(=O)N[C@@H](C[Si](C)(C)C)C(=O)O` [gallium-68 labelled], the tissue uptake was 21.8 ± 3 %ID/g (ex vivo biodistribution; nude mice, HT-29 xenograft, kidneys; 90 min, together with: levocabastine 0.5 µmol).
